# Measurements of several laboratories.
# Lines come from different studies, so protocols differ. “And” joins repeats or separate records; there may be more than shown. ± marks the error that the study gave.
SMILES,tested on,test,test system,conditions,scale,endpoint,result
CNC(C)C(=O)c1cccc(Br)c1 (racemic),,DOI-induced,FVB mouse,"subcutaneous, 10 mg/kg, with: DOI 1 mg/kg",baseline: vehicle plus DOI,head-twitch response,no effect
C[C@H](CS)C(=O)N[C@H](Cc1c[nH]c2ccccc12)C(=O)O,Enterobacter aerogenes,,VIM-1 producing,"50 µM, with: meropenem",,MIC of meropenem,0.5 µg/mL
Cc1c(C(=O)NN2CCCCC2)nn(-c2ccc(Cl)cc2Cl)c1-c1ccc(CCCCCBr)cc1,,,"mice, food-deprived","i.p., 1 h intake, significant food intake decrease",,minimum effective dose,30 mg/kg
COc1ccc(CN[C@@H]2CO[C@H](C(c3ccccc3)c3ccccc3)C[C@H]2O)cc1,"benzodiazepine site, rat brain",radioligand binding,rat brain,"10 µM, with: [3H]flunitrazepam",,inhibition,20.5%
O=S(=O)(O)c1ccc2cc(S(=O)(=O)O)ccc2c1,Escherichia coli,"bacterial growth, broth microdilution",expressing OXA-48,"8 µg/mL, with: ampicillin",MIC of ampicillin,MIC of ampicillin,256 µg/mL
CCCCCCCCCCCCNC(=O)N[C@H](C(=O)N[C@H]1/C=C/CCNC(=O)/C=C/[C@H](C)NC1=O)C(C)C,U-266 bortezomib-resistant,"cell viability, CellTiter-Glo",,24 h,,EC50,0.074 ± 0.01 µM
"Oc1cccc2c1OC1CCCC3CN(CC4CC4)CCC231 (single isomer, unassigned)",,"morphine antinociception, antagonist, tail-flick test",male ICR mice,"subcutaneous, 10 min before morphine, tested 10 min after, water 55 °C, with: morphine 10 nmol i.c.v.",,ED50,0.19 mg/kg
CO[C@H]1[C@H](O[C@H]([C@H]2O[C@@H](n3ccc(=O)[nH]c3=O)[C@H](O)[C@@H]2O)[C@H](NCCCNC(=O)[C@@H](NC(=O)[C@@H](NC(=O)N[C@H](C(=O)O)C(C)C)[C@@H]2CCNC(=N)N2)[C@@H](OC(=O)CCCCCCCCCCCCN(O)C(=N)N)C(C)C)C(N)=O)O[C@H](CN)[C@H]1O,Bacillus subtilis,alamar blue,ATCC 6051,,,MIC90,6.4 ± 0.081 µg/mL
Nc1cc(S(=O)(=O)O)cc2cc(S(=O)(=O)O)cc(O)c12,Escherichia coli,"bacterial growth, broth microdilution",expressing OXA-48,"128 µg/mL, with: ampicillin",MIC of ampicillin,MIC of ampicillin,256 µg/mL
NC[C@@H](NC[C@@H]1CCCN1C[C@@H](CO)NC[C@@H](NCCC12CC3CC(CC(C3)C1)C2)c1ccccc1)c1ccccc1,Acinetobacter baumannii,bacterial growth,,compound alone,,IC50,20 µM and 19.7 µM
Cc1ccc(-c2csc(NP(=O)(O)OCC3OC(n4c[n+](Cc5ccccc5)c5c(=O)[nH]c(NC(=O)c6ccccc6)nc54)C4OC(C)(C)OC34)n2)cc1 (stereo not drawn),MCF7,item: β-actin,,"concentration not given, unit not given",baseline: reference protein,protein level,125
CC[C@H](C)[C@H](NC(=O)[C@H](C)NC(=O)[C@H](CCC(=O)O)NC(=O)[C@H](CCC(=O)O)NC(=O)[C@H](CC(C)C)NC(=O)[C@H](CCCCN)NC(=O)[C@H](CCCCN)NC(=O)[C@H](CCSC)NC(=O)[C@H](CCC(=O)O)NC(=O)[C@H](Cc1ccc(O)cc1)NC(=O)[C@H](CCC(=O)O)NC(=O)[C@H](CC(C)C)NC(=O)[C@H](CC(=O)O)NC(=O)[C@H](CC(C)C)NC(=O)[C@H](Cc1ccccc1)NC(=O)[C@H](Cc1ccc(O)cc1)NC(=O)[C@@H](NC(=O)[C@H](CC(N)=O)NC(=O)[C@@H](NC(=O)[C@H](CCC(N)=O)NC(=O)[C@H](CC(=O)O)NC(=O)[C@H](CC(C)C)NC(=O)[C@@H](N)CO)[C@@H](C)CC)C(C)C)C(=O)N[C@@H](CCCCN)C(=O)N[C@@H](CCCCN)C(=O)N[C@@H](CC(C)C)C(=O)N[C@@H](CCC(=O)O)C(=O)N[C@@H](CCC(=O)O)C(=O)N[C@@H](C)C(=O)N[C@@H](Cc1ccc(O)cc1)C(=O)N[C@H](C(=O)N[C@@H](CC(=O)O)C(=O)N[C@@H](CC(C)C)C(=O)N[C@@H](CCCCN)C(=O)N[C@@H](CCC(=O)O)C(=O)N[C@@H](CC(C)C)C(=O)O)[C@@H](C)CC,HCoV-OC43,"viral infection, inhibitor, immunostaining",HCT-8,"2 days, dual mutations",,IC50,0.298 µM
Cc1cc(N)nc(-c2ccc(CNCCc3cccc(F)c3)cc2)c1,Bacillus subtilis NOS,,,,baseline: KS I218V over KS wild type,selectivity ratio,5 to 6 fold
CN1CC[C@]23c4c5ccc(O)c4O[C@H]2c2ncc(-c4ccc(Cl)cc4)cc2C[C@@]3(OCCCc2ccccc2)[C@H]1C5,,,"CD-1 mouse, chemotherapy-induced neuropathy","sc, 3.2 mg/kg, day 1",baseline: morphine 10 mg/kg,AUC increase,165%
CC1(C)OC2C(COP(=O)(O)Nc3nccs3)OC(n3cnc4c(=O)[nH]c(NC(=O)c5ccccc5)nc43)C2O1 (stereo not drawn),Vero,"cell growth, SRB",,,,IC50,> 100 µM
CO[C@H]1[C@H](O[C@H]([C@H]2O[C@@H](n3ccc(=O)[nH]c3=O)[C@H](O)[C@@H]2O)[C@H](NCCCNC(=O)[C@@H](NC(=O)[C@@H](NC(=O)N[C@H](C(=O)O)C(C)C)[C@@H]2CCNC(=N)N2)[C@@H](OC(=O)CCCCCCCCCCCCNC(=N)N)C(C)C)C(N)=O)O[C@H](CN)[C@H]1O,Mycolicibacterium smegmatis,alamar blue,ATCC 607,nutrient-deficient medium,,MIC90,0.08 ± 0.026 µg/mL
C=CC(=O)Nc1cc(-n2c(=O)ccc3cnc4ccc(-c5cn[nH]c5)cc4c32)ccc1C,K562,cell growth,,72 h,,GI50,> 10 µM
O=S(=O)(O)c1ccc2c(c1)Cc1cc(S(=O)(=O)O)ccc1-2,Escherichia coli,"bacterial growth, broth microdilution",expressing OXA-48,"16 µg/mL, with: ampicillin",MIC of ampicillin,MIC of ampicillin,256 µg/mL
NC[C@@H](NC[C@@H]1CCCN1C[C@@H](CO)NC[C@@H](NCCC1CC2CCC1C2)c1ccccc1)c1ccccc1 (stereo partly drawn),Escherichia coli,bacterial growth,,"24 µM, fold shift of IC50, with: amikacin",,potentiation of amikacin,6.5 fold
Cc1ccc(-c2csc(NP(=O)(O)OCC3OC(n4cnc5c(=O)[nH]c(NC(=O)c6ccccc6)nc54)C4OC(C)(C)OC34)n2)cc1 (stereo not drawn),Vero,"cell growth, SRB",,,,IC50,> 100 µM
NC1=NC2(CCCCC2)N(c2ccc(OCc3cn(CCCCOc4ccc5ccc(=O)oc5c4)nn3)cc2)C(N)=N1,Mycobacterium bovis BCG,,"resistant, thyA H147Y",,,MIC50,3.2 µM
O=C(O)c1ccc(-c2cccc(C(=O)O)c2)cc1,Escherichia coli,"bacterial growth, broth microdilution",expressing OXA-48,"32 µg/mL, with: ampicillin",MIC of ampicillin,MIC of ampicillin,256 µg/mL
Cc1cc(=O)oc2cc(OCCCCn3cc(COc4ccc(N5C(N)=NC(N)=NC56CCCCC6)cc4)nn3)ccc12,Mycobacterium bovis,,"BCG Tac^r7.1, thyA A148E missense",TA-C-resistant thyA mutant,,MIC50,3.2 µM
NC[C@@H](NC[C@@H]1CCCN1C[C@@H](CO)NC[C@@H](NCCc1ccc(Cl)c(Cl)c1)c1ccccc1)c1ccccc1,Acinetobacter baumannii,bacterial growth,,compound alone,,IC90,15.1 µM
CC(C)C(C(=O)N(Cc1ccc(C2CCCCC2)cc1)c1ccc(C(=O)O)cc1)N(C)S(=O)(=O)c1c(F)c(F)c(F)c(F)c1F (stereo not drawn),Pa03C-CAF co-culture spheroids,"cell growth, Alamar blue",,12 days,,IC50,23.5 ± 4.4 µM
CC1CCCCCCCCCCCCC(=O)C1 (stereo not drawn),Manis javanica OBP3 Y81A,,,concentration not given,baseline: wild type,binding affinity,decreased
CC(CCN[C@H](CN[C@H](CO)CN1CCC[C@H]1CN[C@H](CN)c1ccccc1)c1ccccc1)c1ccccc1 (stereo partly drawn),Klebsiella pneumoniae,bacterial growth,,"8 µM, fold shift of IC50, with: amikacin",,potentiation of amikacin,1.5 fold
CC(C)C[C@@H]1NC(=O)[C@H](CCC(=O)O)NC(=O)[C@@H]2CSSC[C@@H]3NC(=O)[C@H](C)NC(=O)[C@@H]4CCCN4C(=O)[C@H](CC(N)=O)NC(=O)[C@H](CSSC[C@H](NC(=O)[C@H](Cc4ccc(O)cc4)NC(=O)[C@H](CC(N)=O)NC(=O)[C@H](CO)NC(=O)[C@H](CO)NC(=O)CN4CCCN(CC(=O)O)CCN(CC(=O)O)CCCN(CC(=O)O)CC4)C(=O)N2)NC(=O)[C@H](CSSC[C@@H](C(=O)N[C@@H](Cc2ccccc2)C(=O)O)NC(=O)CNC(=O)[C@H]([C@@H](C)O)NC3=O)NC1=O [copper-64 labelled],T84,,,"1 h loading, pH 5.5, 37 °C",,64Cu efflux,no effect
Nc1n[nH]c(=O)[nH]1,heterotrophic aerobic bacteria,O2 uptake,activated return sludge,,,IC20,> 32000 µM
NC[C@@H](NC[C@@H]1CCCN1C[C@@H](CO)NC[C@@H](NCCc1ccc(-c2ccccc2)cc1)c1ccccc1)c1ccccc1,Klebsiella pneumoniae,bacterial growth,,"8 µM, fold shift of IC50, with: amikacin",,potentiation of amikacin,1.3 fold
